{"data": "Published values gathered from unrelated publications", "note": "Every numbered part comes from another study and shows a few of its results, in no order. Changes are numbered by the printed parent chain."}
{"data": "Block 1", "target": "Phosphate system positive regulatory protein PHO4, full length, GST-tagged (PHO4, Saccharomyces cerevisiae, UniProt P07270, residues 1-312)", "technique": "competition protein-binding microarray", "molecule type": "double-stranded DNA, one strand shown", "medium": "in vitro", "tested at": "2 µM", "setting": "whole 60-bp probe, lowest competitor level", "with": "Cbf1 competitor, 0.05 µM", "reading": "higher = stronger binding", "Residues (chain)": "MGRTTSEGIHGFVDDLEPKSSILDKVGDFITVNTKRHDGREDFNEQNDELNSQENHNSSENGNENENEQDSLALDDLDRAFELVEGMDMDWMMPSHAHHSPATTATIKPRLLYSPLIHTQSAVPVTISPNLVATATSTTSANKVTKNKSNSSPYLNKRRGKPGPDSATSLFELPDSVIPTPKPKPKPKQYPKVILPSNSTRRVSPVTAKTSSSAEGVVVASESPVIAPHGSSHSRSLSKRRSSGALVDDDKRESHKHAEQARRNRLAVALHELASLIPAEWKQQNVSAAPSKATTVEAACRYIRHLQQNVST"}
{"Strand": "AAAGCGGTAATTTGTGGCGTGGGTGCAGATATCTATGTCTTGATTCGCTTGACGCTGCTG", "fluorescence intensity": "7160 a.u."}
{"Strand": "CTGAAAAGATTTCGGCACATGGTCTTGGGACCAGAGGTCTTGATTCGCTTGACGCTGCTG", "fluorescence intensity": "12400 a.u."}
{"Strand": "CGGGGTTAAGTTTGTTGTGTGGGTGGCTTGCAGCAGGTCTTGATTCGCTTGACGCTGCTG", "fluorescence intensity": "4780 a.u."}
{"Strand": "CATACCCAACCTTGCGCTGTGGGTGAAGATATTTGTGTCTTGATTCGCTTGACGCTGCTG", "fluorescence intensity": "4020 a.u."}
{"Strand": "AAAGCGGTAATTTGTCACTCTACTTCACATATCTATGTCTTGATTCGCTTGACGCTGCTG", "fluorescence intensity": "2980 a.u."}
{"Strand": "CGGGGTTAAGTTTGATAGGTGGGTGGCTTGCAGCAGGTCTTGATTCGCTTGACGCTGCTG", "fluorescence intensity": "4340 a.u."}
{"Strand": "CGGGGTTAAGTTTGGATAGTGGGTGGCTTGCAGCAGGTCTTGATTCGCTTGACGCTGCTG", "fluorescence intensity": "4500 a.u."}
{"Strand": "CGGGGTTAAGTTTGTGCGGTGGGTGGCTTGCAGCAGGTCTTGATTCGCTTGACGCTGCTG", "fluorescence intensity": "4970 a.u."}
{"Strand": "CTAACGAAGGTTTGTAGTGTGGGTGACAAGCCAAGTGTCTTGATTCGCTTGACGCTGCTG", "fluorescence intensity": "5270 a.u."}
{"Strand": "CTTTCCCGATCTTGTACGGTGGGTGTAGCACATTTGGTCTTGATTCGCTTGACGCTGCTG", "fluorescence intensity": "4320 a.u."}
{"Strand": "TCTGATCTTGTGTTCCACGTGCCTGTGGTGGCTTTAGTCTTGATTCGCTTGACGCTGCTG", "fluorescence intensity": "18500 a.u."}
{"Strand": "ATTAAATAGAAATATCACATGGCGATCCACTGAATGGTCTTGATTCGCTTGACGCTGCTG", "fluorescence intensity": "9790 a.u."}
{"Strand": "CTTTCCCGATCTTTTCACGTGTCCTTAGCACATTTGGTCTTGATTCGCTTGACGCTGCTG", "fluorescence intensity": "13600 a.u."}
{"Strand": "GTACGGGTGGACGACCACGTGCCGACTATACGCTATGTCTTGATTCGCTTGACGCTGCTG", "fluorescence intensity": "16000 a.u."}
{"Strand": "AAATTACTAAGTTGTCGAGTGGGTGACGCCGTATGAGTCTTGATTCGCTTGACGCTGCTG", "fluorescence intensity": "3800 a.u."}
{"Strand": "CATACCCAACCTTGCGGAGTGGGTGAAGATATTTGTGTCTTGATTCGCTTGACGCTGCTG", "fluorescence intensity": "4330 a.u."}
{"Strand": "AAAGCGGTAATTTGGAGAGTGGGTGCAGATATCTATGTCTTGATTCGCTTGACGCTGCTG", "fluorescence intensity": "4340 a.u."}
{"data": "Block 2", "target": "ABI1, truncated, D143A, DHFR fusion (Arabidopsis thaliana)", "technique": "DHFR PCA, deep sequencing", "medium": "yeast", "setting": "methotrexate growth selection, single substitutions", "with": "(+)-ABA 200 µM", "relative to": "wild-type fitted maximum", "reading": "higher = stronger binding", "starting sequence": "PYL1, truncated, DHFR fusion (Arabidopsis thaliana); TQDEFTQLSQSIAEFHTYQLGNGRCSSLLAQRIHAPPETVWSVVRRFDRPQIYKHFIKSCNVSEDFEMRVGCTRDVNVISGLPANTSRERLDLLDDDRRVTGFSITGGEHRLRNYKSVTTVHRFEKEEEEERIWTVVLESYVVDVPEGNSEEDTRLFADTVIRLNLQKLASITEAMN"}
{"Substitution": "G21E", "relative binding score [%]": 105}
{"Substitution": "K168L", "relative binding score [%]": 63.2}
{"Substitution": "F15I", "relative binding score [%]": 67.2}
{"Substitution": "T135L", "relative binding score [%]": -3.34}
{"Substitution": "A35Y", "relative binding score [%]": 3.75}
{"Substitution": "A30C", "relative binding score [%]": 101}
{"Substitution": "F66T", "relative binding score [%]": 91.2}
{"Substitution": "S117C", "relative binding score [%]": 72.8}
{"Substitution": "E109W", "relative binding score [%]": 53.5}
{"Substitution": "R123H", "relative binding score [%]": 100}
{"Substitution": "S87I", "relative binding score [%]": 25.2}
{"Substitution": "T120Q", "relative binding score [%]": 50.1}
{"Substitution": "H122Q", "relative binding score [%]": 67.8}
{"Substitution": "D65E", "relative binding score [%]": 98.8}
{"Substitution": "D97K", "relative binding score [%]": 106}
{"Substitution": "Q19W", "relative binding score [%]": 77.4}
{"Substitution": "S26R", "relative binding score [%]": 85.5}
{"Substitution": "F103R", "relative binding score [%]": -12.9}
{"Substitution": "E14A", "relative binding score [%]": 94.3}
{"data": "Block 3", "target": "CREBL2, bZIP domain (human)", "technique": "DHFR protein complementation", "medium": "yeast", "setting": "single substitutions, most at no-binding floor", "relative to": "wild-type JUN-FOS pair", "reading": "higher = stronger binding", "starting sequence": "JUN, bZIP domain (human); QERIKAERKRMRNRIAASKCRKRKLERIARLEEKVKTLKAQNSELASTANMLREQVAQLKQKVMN; partner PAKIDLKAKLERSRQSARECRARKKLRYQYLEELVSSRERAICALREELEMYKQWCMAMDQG"}
{"Substitution": "L38G", "binding fitness": "-1.56 natural log"}
{"Substitution": "T37K", "binding fitness": "-1.52 natural log"}
{"Substitution": "E44T", "binding fitness": "-1.51 natural log"}
{"Substitution": "T37L", "binding fitness": "-1.4 natural log"}
{"Substitution": "L31Y", "binding fitness": "-1.44 natural log"}
{"Substitution": "A57G", "binding fitness": "-1.45 natural log"}
{"Substitution": "L31P", "binding fitness": "-1.39 natural log"}
{"Substitution": "Q41R", "binding fitness": "-1.36 natural log"}
{"Substitution": "A49R", "binding fitness": "-1.24 natural log"}
{"Substitution": "R53T", "binding fitness": "-1.51 natural log"}
{"Substitution": "K36A", "binding fitness": "-1.43 natural log"}
{"Substitution": "T48I", "binding fitness": "-1.6 natural log"}
{"Substitution": "T37N", "binding fitness": "-1.2 natural log"}
{"Substitution": "V35P", "binding fitness": "-1.51 natural log"}
{"Substitution": "E33G", "binding fitness": "-1.49 natural log"}
{"Substitution": "A40T", "binding fitness": "-1.54 natural log"}
{"data": "Block 4", "target": "CCND1, cyclin fold, Cln2 fusion (human)", "technique": "yeast growth competition, sequencing", "medium": "yeast", "setting": "weak parent motif", "relative to": "not given", "reading": "higher = stronger binding", "starting sequence": "SGO1 docking peptide (human); PLAKRALKYTDEK; partner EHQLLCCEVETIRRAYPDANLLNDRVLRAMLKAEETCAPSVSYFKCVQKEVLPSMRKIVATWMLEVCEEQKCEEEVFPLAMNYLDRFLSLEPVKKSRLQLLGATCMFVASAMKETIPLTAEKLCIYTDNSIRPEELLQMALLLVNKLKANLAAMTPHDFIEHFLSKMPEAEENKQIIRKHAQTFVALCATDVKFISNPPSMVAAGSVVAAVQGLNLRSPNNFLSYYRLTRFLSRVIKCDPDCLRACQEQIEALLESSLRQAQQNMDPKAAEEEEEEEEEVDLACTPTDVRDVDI"}
{"Substitution": "PLAKRALKYTDAK [E12A]", "normalised enrichment score": 0.06}
{"Substitution": "PLAKRALKYTDEA [K13A]", "normalised enrichment score": -0.212}
{"Substitution": "PLAKRAAKYTDEK [L7A]", "normalised enrichment score": -0.0751}
{"Substitution": "PLAKRALKYADEK [T10A]", "normalised enrichment score": 0.382}
{"Substitution": "PLAARALKYTDEK [K4A]", "normalised enrichment score": -0.0185}
{"Substitution": "PLAKRALKYTAEK [D11A]", "normalised enrichment score": 0.00316}
{"data": "Block 5", "target": "Ras GTPase-activating protein-binding protein 1, full length (G3BP1, Homo sapiens, UniProt Q13283)", "technique": "RNA Bind-n-Seq", "molecule type": "RNA", "medium": "in vitro", "tested at": "200 nM", "setting": "whole 134-nt RNA, ends assumed", "with": "150 mM KCl", "relative to": "input library", "reading": "higher = stronger binding", "sequence of UniProt Q13283 (whole entry, looked up)": "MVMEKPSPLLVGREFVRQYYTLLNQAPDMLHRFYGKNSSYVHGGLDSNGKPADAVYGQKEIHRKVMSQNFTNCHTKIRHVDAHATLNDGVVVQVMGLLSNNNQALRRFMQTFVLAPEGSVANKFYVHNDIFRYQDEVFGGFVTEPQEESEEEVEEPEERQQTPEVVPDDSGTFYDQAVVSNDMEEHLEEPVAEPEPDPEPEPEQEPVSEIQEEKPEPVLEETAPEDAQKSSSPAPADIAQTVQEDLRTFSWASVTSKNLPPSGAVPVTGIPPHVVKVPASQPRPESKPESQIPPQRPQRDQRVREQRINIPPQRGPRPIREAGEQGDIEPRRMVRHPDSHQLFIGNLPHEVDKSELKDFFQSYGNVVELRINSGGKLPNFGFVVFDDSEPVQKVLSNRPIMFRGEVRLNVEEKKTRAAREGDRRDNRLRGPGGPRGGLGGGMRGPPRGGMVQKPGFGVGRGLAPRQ"}
{"Strand": "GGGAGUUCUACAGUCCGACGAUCAAGUCCUGUGCUACACAUCGUAUGUACCGAAUCGGGGCCCCGGGCCCCGGCCCCGGGAAAGUAUUAUGUUACGCCGUUCGGAUCUGCACUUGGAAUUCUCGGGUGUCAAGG", "log2 enrichment": -0.815}
{"Strand": "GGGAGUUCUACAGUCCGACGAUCUGGGAGGUGGAUUUUGUUUAUUUUUUUAACUCAUUUCCAGGGGUGGGAAUUUUUUUUUAAUAUGUGUCAUGAAUAAAGUUGUUUUUGAAAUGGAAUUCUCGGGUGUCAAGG", "log2 enrichment": 0.105}
{"Strand": "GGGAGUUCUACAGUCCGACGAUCUCAAGUCCUGUGCUACACAUCGUAUGUACCGAAUCGGAGGUUUUUUUGGUUUGGAAAGUAUUAUGUUACGCCGUUCGGAUCUGCACUUCCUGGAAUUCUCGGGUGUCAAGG", "log2 enrichment": -1.12}
{"Strand": "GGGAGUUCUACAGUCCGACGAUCAGUCCUGUGCUACACAUCGUAUGUACCGAAUCGGGCCCCGGGCCCCGGGCCCCGGGGAAAGUAUUAUGUUACGCCGUUCGGAUCUGCACUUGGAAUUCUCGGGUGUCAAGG", "log2 enrichment": -1.18}
{"Strand": "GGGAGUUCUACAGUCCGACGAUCGUCCUGUGCUACACAUCGUAUGUACCGAAUCGGGUUUGGGAAAAAGGGAAAAAAAGGGAAAGUAUUAUGUUACGCCGUUCGGAUCUGCACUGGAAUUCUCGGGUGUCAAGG", "log2 enrichment": -0.331}
{"Strand": "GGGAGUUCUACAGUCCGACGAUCUCAAGUCCUGUGCUACACAUCGUAUGUACCGAAUCGGAAAAAGGAAAGGUUUGGAAAGUAUUAUGUUACGCCGUUCGGAUCUGCACUUCCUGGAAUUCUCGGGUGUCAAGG", "log2 enrichment": -1.36}
{"Strand": "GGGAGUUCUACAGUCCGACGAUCAGUCCUGUGCUACACAUCGUAUGUACCGAAUCGGUUUUUUUGGAAAAAGGUUUUUGGAAAGUAUUAUGUUACGCCGUUCGGAUCUGCACUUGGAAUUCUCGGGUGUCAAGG", "log2 enrichment": -1.68}
{"Strand": "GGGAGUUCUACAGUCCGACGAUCAGUCCUGUGCUACACAUCGUAUGUACCGAAUCAAACCCCCCCAAAUUUAAAUUUAAAAAAGUAUUAUGUUACGCCGUUCGGAUCUGCACUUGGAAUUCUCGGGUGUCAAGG", "log2 enrichment": -0.008}
{"Strand": "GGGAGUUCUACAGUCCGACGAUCCACAGACAAGACGCACCCACACAGACACAGAGGGAAGGGGUUGGGAUGGGGACAGGGUGCACAGCAGGGCGGGGUAGGACCCCAGCCCCUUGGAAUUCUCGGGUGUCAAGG", "log2 enrichment": 1.84}
{"Strand": "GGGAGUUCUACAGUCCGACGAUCUCAAGUCCUGUGCUACACAUCGUAUGUACCGAAUCGGUUGGGGUUGGGUUGGGGAAAGUAUUAUGUUACGCCGUUCGGAUCUGCACUUCCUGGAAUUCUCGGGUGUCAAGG", "log2 enrichment": 0.876}
{"data": "Further values, each from its own experiment"}
{"Molecule": "PhoQ, residues 284 288 289 292 302 303 SLSVQF", "target": "PhoP, residues 12 14 15 18 19 GQALL (Escherichia coli, UniProt P23836)", "test": "Sort-seq, measured: YFP reporter", "test system": "E. coli", "setting": "PhoQ-PhoP variant library, with: 10 µM Mg2+", "how to read": "relative to: high Mg2+ state, higher = stronger signaling", "measurement": "fold induction", "result": 7.23}
